Measurements of several laboratories.
Every numbered part comes from another study and shows a few of its results, in no order.

Series 1 — technique: universal PBM; form: double-stranded DNA, one strand shown; medium: in vitro; concentration: 600 nM; direction: higher = stronger binding
Target: Sal-like protein 4, full length isoform A (SALL4, Homo sapiens, UniProt Q9UJQ4, residues 1-1053)
Sequence of UniProt Q9UJQ4 (whole entry, looked up): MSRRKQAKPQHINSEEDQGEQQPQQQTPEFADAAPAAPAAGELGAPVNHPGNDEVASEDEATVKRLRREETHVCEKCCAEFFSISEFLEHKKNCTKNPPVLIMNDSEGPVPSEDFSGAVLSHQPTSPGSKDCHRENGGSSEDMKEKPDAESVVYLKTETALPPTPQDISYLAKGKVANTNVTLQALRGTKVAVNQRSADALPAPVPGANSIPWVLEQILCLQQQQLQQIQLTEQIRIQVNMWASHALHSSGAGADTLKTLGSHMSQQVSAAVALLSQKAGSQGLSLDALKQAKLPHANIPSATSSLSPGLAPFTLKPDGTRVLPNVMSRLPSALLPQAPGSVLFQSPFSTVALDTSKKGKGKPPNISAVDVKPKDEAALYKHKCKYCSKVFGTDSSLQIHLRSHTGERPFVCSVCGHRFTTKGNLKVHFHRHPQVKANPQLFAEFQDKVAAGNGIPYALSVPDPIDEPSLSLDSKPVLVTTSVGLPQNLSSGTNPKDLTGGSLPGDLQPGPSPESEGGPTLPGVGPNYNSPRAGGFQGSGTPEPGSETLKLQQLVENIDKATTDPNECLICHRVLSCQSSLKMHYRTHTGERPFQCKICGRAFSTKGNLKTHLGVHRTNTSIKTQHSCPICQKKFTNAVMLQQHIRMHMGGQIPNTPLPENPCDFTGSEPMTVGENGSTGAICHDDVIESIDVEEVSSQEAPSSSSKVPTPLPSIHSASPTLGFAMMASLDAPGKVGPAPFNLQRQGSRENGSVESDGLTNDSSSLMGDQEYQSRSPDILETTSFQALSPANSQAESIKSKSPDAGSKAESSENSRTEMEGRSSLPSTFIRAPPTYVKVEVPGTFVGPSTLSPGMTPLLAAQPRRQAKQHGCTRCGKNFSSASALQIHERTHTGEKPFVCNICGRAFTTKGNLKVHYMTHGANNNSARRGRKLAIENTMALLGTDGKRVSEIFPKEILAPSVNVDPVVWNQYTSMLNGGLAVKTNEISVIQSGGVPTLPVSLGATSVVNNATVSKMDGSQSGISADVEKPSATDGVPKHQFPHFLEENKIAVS
Notes: 8-mer, flanks averaged, mean of replicates
With `GGAGTGTA` the E-score was -0.122.
`AAGCAAAA` gave an E-score of 0.236.
With `GCGTGAGC` the E-score was -0.204.
With `CCTCCTCA` the E-score was -0.216.
`ATTATGCG` has an E-score of 0.281.
The E-score of `AAAACCAA` is reported as 0.148.
For `CATTGATA`, the E-score was 0.143.
For `CTAGGGCC`, the E-score was -0.223.
The E-score of `CGCGGGTA` is reported as -0.255.

Series 2 — target: Sox-I, HMG box (Salpingoeca helianthica); technique: Spec-seq; form: double-stranded DNA, one strand shown; medium: in vitro; concentration: not given; notes: whole probe, mean of replicates; reference: not given; direction: lower = stronger binding; shared flanks, not repeated: GAGTCGTCTCGTCAGCAC … CCGTAGAGCACTCAGGTC
Target sequence (chain): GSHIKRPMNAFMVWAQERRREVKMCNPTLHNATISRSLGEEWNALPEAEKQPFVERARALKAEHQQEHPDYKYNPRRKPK
For `CATTAGG`, “relative binding energy” read 0.692 ln ratio.
`CCCTGTT` — result for “relative binding energy”: -0.576 ln ratio.
For `GACAGTT`, “relative binding energy” read 0.449 ln ratio.
`AGATGTT`: “relative binding energy” -0.227 ln ratio.
`CAGAGTT` — result for “relative binding energy”: 0.75 ln ratio.
`CATTATG` — result for “relative binding energy”: -1.14 ln ratio.

Series 3 — technique: RNA Bind-n-Seq; form: RNA; medium: in vitro; concentration: 365 nM; reference: no-protein control; direction: higher = stronger binding
Target: RNA binding protein fox-1 homolog 2, RRM domain, GST-SBP tag (RBFOX2, Homo sapiens, UniProt O43251-10, residues 100-194)
Notes: natural RNA segment, single round, ends assumed
Target sequence (chain): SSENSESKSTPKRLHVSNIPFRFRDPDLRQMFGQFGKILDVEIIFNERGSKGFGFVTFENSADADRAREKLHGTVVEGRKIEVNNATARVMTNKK
`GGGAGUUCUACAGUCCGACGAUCAGUGCAGAACUUUUACCAGGCUGUAAAAGCAAAACCUCGUAUCAGCUCUGGAACAAUACCUGCAGUUAUUCUUCAGCUGUUUGGACAACUUAGAUUGGGUUUAUAACUAUUGGAAUUCUCGGGUGCCAA` — result for “RBNS enrichment (R)”: 0.419.
For `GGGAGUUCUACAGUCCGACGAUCGGGUGCUCAAUUGCUGCUCACGUCUGCUGCAACCUGAAGCUUGCAUCUCAGCCAGCAGAUCUGCUCCCUUCUGGGACCCAGGCUUCAGUGUCACACGGUCCUUGGCUAUGUGGAAUUCUCGGGUGCCAA`, “RBNS enrichment (R)” read 0.28.
`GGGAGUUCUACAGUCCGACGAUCUCCUCACCGAGCAUGCUUCCCUAGGAUCCCGUCUUCCAGAGAACCUGUGGGCUGACUGCCCUCCGAAGAGAGUUCUGGAUGUCUGGCUCAAAGCAGCAGGACUGUGGGAAUGGAAUUCUCGGGUGCCAA` — result for “RBNS enrichment (R)”: 1.48.
For `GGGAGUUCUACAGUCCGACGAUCAAGUUGUAAACACAGUGUGGUUAUGGGGAGAGGGCAUAUAAAUUCCCCAUAUUUGUGUUCAGUUCCAGCUUUUGUAGAUGGCACUUUAGUGAUUGCUUUUAUUACAUUAGUGGAAUUCUCGGGUGCCAA`, “RBNS enrichment (R)” read 0.682.
`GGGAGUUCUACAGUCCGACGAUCCUGAUACUCCUUGGAGACACCCUCUUUGGCCCUCACUACUUGACCAGACUGGUACUUGAGUCCUUCUCAUGGGUGGGGUGAUUGCCUCUUCUCAUCAGGAGCCAGGAGAGUGGAAUUCUCGGGUGCCAA`: “RBNS enrichment (R)” 0.418.
Under “RBNS enrichment (R)”, `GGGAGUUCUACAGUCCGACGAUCGUUUUGAAACAGAAACCAGUACUCAAUAAUGUAGUGUCAGUGUCCGUUUGGUACGUAUCAGUGAAUUAUUGGACAGUUAGCUUAUAACUUAUAGGCAGUCACUAUAAAUUUGGAAUUCUCGGGUGCCAA` is recorded as 0.296.
Under “RBNS enrichment (R)”, `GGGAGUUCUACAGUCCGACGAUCUUUUUGGCUGUCAUUUCAAAAGUGGAAUAAAUUUAUUAAUUUAGUAGUACUAAAUGGUAUCCUUAGAUUAAAAUUUUGUGCUUGAUAACAGCUGUUUUUUCUACAUUAGAUGGAAUUCUCGGGUGCCAA` is recorded as 0.474.
`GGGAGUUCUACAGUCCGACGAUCUUUCGGGAUUCCCAUCCGUCCUGGCGAUCCUGCCAGCAGUGGGUGGGCAGCCUGAGCUCCCUCGGGCUCGCCUGCCAGCCUGGAGUUCUUCCUGUGCUCCUUGAUCACCUUGGAAUUCUCGGGUGCCAA`: “RBNS enrichment (R)” 0.168.

Single results of other studies
The fold induction of `PhoQ, residues 284 288 289 292 302 303 NLCILV` is reported as 58 (PhoP, residues 12 14 15 18 19 VQALL (Escherichia coli, UniProt P23836); Sort-seq, refers to: YFP reporter; E. coli; PhoQ-PhoP variant library, with: 10 µM Mg2+; reference: high Mg2+ state, higher = stronger signaling).

For quick reference, copied from above (series 3):
Under “RBNS enrichment (R)”, `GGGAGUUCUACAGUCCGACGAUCGUUUUGAAACAGAAACCAGUACUCAAUAAUGUAGUGUCAGUGUCCGUUUGGUACGUAUCAGUGAAUUAUUGGACAGUUAGCUUAUAACUUAUAGGCAGUCACUAUAAAUUUGGAAUUCUCGGGUGCCAA` is recorded as 0.296.
`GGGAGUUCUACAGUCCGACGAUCUUUCGGGAUUCCCAUCCGUCCUGGCGAUCCUGCCAGCAGUGGGUGGGCAGCCUGAGCUCCCUCGGGCUCGCCUGCCAGCCUGGAGUUCUUCCUGUGCUCCUUGAUCACCUUGGAAUUCUCGGGUGCCAA`: “RBNS enrichment (R)” 0.168.
`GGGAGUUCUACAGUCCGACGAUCCUGAUACUCCUUGGAGACACCCUCUUUGGCCCUCACUACUUGACCAGACUGGUACUUGAGUCCUUCUCAUGGGUGGGGUGAUUGCCUCUUCUCAUCAGGAGCCAGGAGAGUGGAAUUCUCGGGUGCCAA`: “RBNS enrichment (R)” 0.418.
